Published values from different studies.
Parts stem from different laboratories: compare values within a part only. Positions count from the first letter of the parent shown.

Sample 1 — technique: protein binding microarray; molecule type: double-stranded DNA, one strand shown; medium: in vitro; concentration: not given; baseline: not given; reading: higher = stronger binding
Target: Histone acetyltransferase KAT6A, winged helix 1, GST fusion (KAT6A, Homo sapiens, UniProt Q92794, residues 1-85)
Notes: 8-mer, flanks averaged, mean of 2 arrays, mostly near background
Target sequence (chain): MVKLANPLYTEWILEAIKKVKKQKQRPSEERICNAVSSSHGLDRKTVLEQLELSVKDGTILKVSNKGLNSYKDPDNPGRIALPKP
With `ACTCCGGA` the E-score was 0.0837.
The E-score of `TATTACGA` is reported as 0.0247.
With `AAGGTTGT` the E-score was -0.117.
With `TATGTCGA` the E-score was -0.122.
`AAACACAA` has an E-score of -0.254.
`CGTAGGAG` has an E-score of 0.0312.
The E-score of `GAGTATGC` is reported as 0.147.
`CGCTTCAG` has an E-score of 0.0115.
With `CACTATAA` the E-score was -0.128.
`AGCCCTGA` gave an E-score of -0.114.
`CGCCTATA` has an E-score of 0.265.
`GCCGGCCC` gave an E-score of 0.38.
`ATCGGCGC` has an E-score of 0.366.
For `AGTGTGTC`, the E-score was -0.0641.
`TAAGGGGA` gave an E-score of -0.207.
`AATACTTG` gave an E-score of -0.148.
For `GCGAACAA`, the E-score was 0.00299.
`AGAGTAGG` has an E-score of -0.201.
The E-score of `GCTGATAA` is reported as 0.0192.
With `CCATCTGC` the E-score was 0.091.
`AATCTAAA` has an E-score of -0.199.
`AAGTGGCC` has an E-score of -0.168.
`CACAAAAA` gave an E-score of -0.0773.
With `GATTAAAC` the E-score was 0.0411.
With `TATGGTCA` the E-score was -0.169.

Sample 2 — technique: protein-binding microarray; molecule type: double-stranded DNA, one strand shown; medium: in vitro; concentration: 2200 nM top; notes: 60-bp whole probe; with: salmon DNA 0.4 mg/ml; baseline: random background probes; reading: higher = stronger binding; all sequences stand within: GCCTAGCAC … GTCTTGATTCGCTTGACGCTGCTG
Target: Interferon regulatory factor 7, full length, phosphomimetic (IRF7, Homo sapiens, UniProt Q92985, residues 1-503, S471D/S472D/S475D/S476D/S477D/S483D/S484D/S487D)
Target sequence (chain): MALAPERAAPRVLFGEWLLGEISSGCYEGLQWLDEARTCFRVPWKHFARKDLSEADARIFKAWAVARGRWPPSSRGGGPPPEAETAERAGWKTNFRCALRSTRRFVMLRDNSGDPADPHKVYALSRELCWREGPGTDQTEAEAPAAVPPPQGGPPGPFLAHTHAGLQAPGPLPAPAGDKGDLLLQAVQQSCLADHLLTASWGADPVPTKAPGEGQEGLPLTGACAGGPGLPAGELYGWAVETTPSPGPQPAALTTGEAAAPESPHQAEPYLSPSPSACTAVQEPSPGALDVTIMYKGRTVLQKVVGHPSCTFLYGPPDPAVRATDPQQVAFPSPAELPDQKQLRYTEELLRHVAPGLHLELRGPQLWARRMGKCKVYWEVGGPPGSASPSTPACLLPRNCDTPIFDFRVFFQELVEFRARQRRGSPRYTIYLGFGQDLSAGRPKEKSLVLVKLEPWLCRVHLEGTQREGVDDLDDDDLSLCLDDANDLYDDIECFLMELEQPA
Under “fitted relative affinity”, `GACGGACTGCTCTTCCTGACGTGCTAG` is recorded as 0.351 z-score.
For `GACGGACTGCTTATGCTGACGTGCTAG`, “fitted relative affinity” read -0.0841 z-score.
`CCAATTCTCTTTTCACTTTCGTGCTAG`: “fitted relative affinity” 5.31 z-score.
For `TCAACTTTCTACGTCTGACTGTGCTAG`, “fitted relative affinity” read 2.13 z-score.
`TTAGGTTACCTACTGCTTTAGTGCTAG` — result for “fitted relative affinity”: 0.443 z-score.
`GACGATATCGGGGCTGGAGACGTGCTA`: “fitted relative affinity” -0.0198 z-score.
`GACGGTCTCGACTTTCGGGACGTGCTA`: “fitted relative affinity” 2.74 z-score.
`TGAGGTATCGGTCTCGGTTAGTGCTAG` — result for “fitted relative affinity”: 0.504 z-score.
For `TCACTTCCCAATTGTCTTACTGTGCTA`, “fitted relative affinity” read 3.4 z-score.
For `CAATACCTTATGAATGTGTTGTGCTAG`, “fitted relative affinity” read 0.854 z-score.
`TTAGCACTGGGGACTGGGTTAGTGCTA`: “fitted relative affinity” -0.746 z-score.
For `GACGATATCGGGACTGGACACGTGCTA`, “fitted relative affinity” read -0.128 z-score.
Under “fitted relative affinity”, `GACGGTATCGCTTTCGGGACGTGCTAG` is recorded as 4.3 z-score.
For `GACGGTTTCGGTCTCGAGACGTGCTAG`, “fitted relative affinity” read 6.16 z-score.
`TTAGGTTTCAGTATCGATTAGTGCTAG` — result for “fitted relative affinity”: 2.34 z-score.
Under “fitted relative affinity”, `TCAGTTTTCTAATGTTTTACTGTGCTA` is recorded as 1.91 z-score.
Under “fitted relative affinity”, `GTCGGTCTCCTTTTCCTGACGTGCTAG` is recorded as 2.36 z-score.
`CCCATTCTGAATTCGAATGCGTGCTAG`: “fitted relative affinity” 1.82 z-score.
For `GACGGACTGGGGTAACGGGACGTGCTA`, “fitted relative affinity” read -1.11 z-score.

Sample 3 — technique: RNA Bind-n-Seq; molecule type: RNA; medium: in vitro; concentration: 365 nM; baseline: no-protein control; reading: higher = stronger binding
Target: RNA binding protein fox-1 homolog 2, RRM domain, GST-SBP tag (RBFOX2, Homo sapiens, UniProt O43251-10, residues 100-194)
Notes: natural RNA segment, single round, ends assumed
Target sequence (chain): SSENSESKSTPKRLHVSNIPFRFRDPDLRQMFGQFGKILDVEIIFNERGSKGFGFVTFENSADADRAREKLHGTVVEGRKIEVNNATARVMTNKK
Under “RBNS enrichment (R)”, `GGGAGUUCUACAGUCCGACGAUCUCCAACCAGCAAAAUUUUGAUCAAAUUUGAACAAAAACCCAAAAACCUAAAACUGUUGAGCAGGUUGCGAUGAGGAGCACAGGGCUAGCUGCAGAGCUGGAUCCUCAGGAUGGAAUUCUCGGGUGCCAA` is recorded as 0.315.
For `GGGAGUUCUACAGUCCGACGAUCAACCUAAAAGCUCAGAUGCACUUACAGUCUUGUCUGUGGCCUUUGUAUUGUUAUUGGCUGUAAACGUCUGUCUGGACCGAAUAAAGAUUCAUUCACGUGGCCUCUGCUCCUGGAAUUCUCGGGUGCCAA`, “RBNS enrichment (R)” read 0.468.
For `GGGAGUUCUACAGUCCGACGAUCUAGAAAAAUUCUUUUAAAAUUGACAGAAGAUAAUUUAUACCUUUUAUGGACUCUGAAGACACUUCAAAACAUUAAAAGUCCUUAUGUCUUUGGUAAUGAAACAAUAACACUGGAAUUCUCGGGUGCCAA`, “RBNS enrichment (R)” read 0.57.
`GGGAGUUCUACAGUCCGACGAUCACAAACUCUGACGCCCUCUGUUUUCAGUGAGUAGUGAACUCCGGAAGCACAAAGGCCAGCGUGACAGCAGCGCCAUGCUCAUCCCCCUCACAGGACACUUCACUGCCAUUUGGAAUUCUCGGGUGCCAA`: “RBNS enrichment (R)” 0.297.
`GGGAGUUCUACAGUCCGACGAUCUCCAGAGGAGUCCUUCCCGAGAGCUGGCAAGUCUUUGAGCUGUAGCUUGAAUGGGCUGUCGGGGGACACUGGAAGGGAGUAAGCAGCUUUUUGAAAAUGUUAAUACAUUAUGGAAUUCUCGGGUGCCAA` — result for “RBNS enrichment (R)”: 2.5.
Under “RBNS enrichment (R)”, `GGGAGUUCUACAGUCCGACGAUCCUAAACAAAGCACACUUUUCAGGACUUGCUGGGUCACCUUUUCCUGAGGAAUGAUAGCGAAGAGUGUUUUUUUCAUAAACUGGAUCAAACUCCGUCUUCAUGUUUACCAUUGGAAUUCUCGGGUGCCAA` is recorded as 0.727.
For `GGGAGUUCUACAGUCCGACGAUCUACACUCCCCAAAACACCCCUUUCCAGUUACAAUUAGCAUCGUGAUCCAAGCAGAUGCCACAUGGAAGAGGAAUCGCCAUUUACUCAGAAAAAAUGUCCCUUACAGGAACUGGAAUUCUCGGGUGCCAA`, “RBNS enrichment (R)” read 0.207.
`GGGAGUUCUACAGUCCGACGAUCCAAGCUUUUGUGUUUAUUAUCCUCAUUUUUACUGAACAUUGUUAGUUUUGGGGUAAUGGAAACCCACUUUUUCAUUGUAAUGACUUUGGGGGCUUUUGUUAGUAAGGGUGUGGAAUUCUCGGGUGCCAA`: “RBNS enrichment (R)” 0.33.

Sample 4 — target: CCNB2, cyclin fold, Cln2 fusion (human); technique: yeast growth competition, sequencing; medium: yeast; notes: weak parent motif; baseline: not given; reading: higher = stronger binding
Parent: ORC1 docking peptide (human); PRARKRLELGNLG
Under “normalised enrichment score”, `A3N` is recorded as 1.02.
`N11K` — result for “normalised enrichment score”: 0.424.
`K5S`: “normalised enrichment score” 0.611.
`K5R` — result for “normalised enrichment score”: 0.664.
`L12H`: “normalised enrichment score” 0.71.
Under “normalised enrichment score”, `R6M` is recorded as 0.754.
Under “normalised enrichment score”, `R2D` is recorded as 0.317.
Under “normalised enrichment score”, `L12C` is recorded as 0.525.
`N11V`: “normalised enrichment score” 0.608.
`G13F`: “normalised enrichment score” 0.488.
`A3V` — result for “normalised enrichment score”: 0.325.
`R2L`: “normalised enrichment score” 0.0851.
`G13H` — result for “normalised enrichment score”: 0.536.
For `R4F`, “normalised enrichment score” read 0.0958.
`L9H`: “normalised enrichment score” 0.385.
For `K5N`, “normalised enrichment score” read 0.4.
For `R2S`, “normalised enrichment score” read -0.0385.
Under “normalised enrichment score”, `L9K` is recorded as 0.644.
`G10F` — result for “normalised enrichment score”: 0.437.
`G10H`: “normalised enrichment score” 0.354.
Under “normalised enrichment score”, `R6K` is recorded as 0.599.
For `R4W`, “normalised enrichment score” read 0.44.
`K5C`: “normalised enrichment score” 0.128.
`G13L`: “normalised enrichment score” -0.131.
Under “normalised enrichment score”, `A3H` is recorded as 0.574.

A few entries again (sample 4):
`G10F` — result for “normalised enrichment score”: 0.437.
`L9H`: “normalised enrichment score” 0.385.
Under “normalised enrichment score”, `R2D` is recorded as 0.317.
For `R2S`, “normalised enrichment score” read -0.0385.
Under “normalised enrichment score”, `L9K` is recorded as 0.644.
Under “normalised enrichment score”, `L12C` is recorded as 0.525.
`L12H`: “normalised enrichment score” 0.71.
`A3V` — result for “normalised enrichment score”: 0.325.
`K5R` — result for “normalised enrichment score”: 0.664.
`G13H` — result for “normalised enrichment score”: 0.536.
